Measured values of several laboratories.
Numbered parts are unrelated; each lists some results of a single study.

Sample 1
Target: Histone acetyltransferase KAT6A, winged helix 1, GST fusion (KAT6A, Homo sapiens, UniProt Q92794, residues 1-85)
Method: protein binding microarray
Form: double-stranded DNA, one strand shown
Matrix: in vitro
Tested at: not given
Notes: 8-mer, flanks averaged, mean of 2 arrays, mostly near background
Baseline: not given
Direction: higher = stronger binding
Target sequence (chain): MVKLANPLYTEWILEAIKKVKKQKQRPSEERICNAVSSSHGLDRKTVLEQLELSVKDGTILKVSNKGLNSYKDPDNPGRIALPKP
`AAGCTGGG` has an E-score of -0.175.
`AGCTCACG` has an E-score of -0.0427.
The E-score of `CCAGAGGA` is reported as -0.271.
For `GCGAGAGA`, the E-score was -0.0445.
The E-score of `CCTAGGCC` is reported as -0.1.
With `CAACTACC` the E-score was -0.0951.
With `CCATCCGC` the E-score was 0.116.
With `CGCACATC` the E-score was 0.303.
For `CGTGCCAG`, the E-score was -0.0687.
`ATTATTAC` has an E-score of 0.0899.
For `GACGAGGC`, the E-score was -0.0113.
`TATTTTGA` gave an E-score of -0.278.
For `AAAACCTC`, the E-score was -0.0174.
The E-score of `CCTTTGAC` is reported as -0.169.
`CAGCTGTC` has an E-score of -0.176.
With `CACTCCGG` the E-score was 0.0182.
For `GGGGGGTA`, the E-score was 0.0687.
`CGACACGC` gave an E-score of 0.0981.
`ATGTATAG` gave an E-score of -0.138.
`GTATAGAC` gave an E-score of -0.123.
`ACCCGTCC` gave an E-score of 0.249.
`AGTGCGGG` has an E-score of 0.163.
For `GGCGACAC`, the E-score was 0.332.
For `ACAAGTCA`, the E-score was -0.0199.
`ATATCGCG` has an E-score of 0.314.

Sample 2
Target: Interferon regulatory factor 5, full length, phosphomimetic (IRF5, Homo sapiens, UniProt Q13568-2, residues 1-514, K96S/S451D/S453D/S456D/S462D)
Method: protein-binding microarray
Form: double-stranded DNA, one strand shown
Matrix: in vitro
Tested at: 250 nM
Notes: 60-bp whole probe
Together with: salmon DNA 0.4 mg/ml
Baseline: random background probes
Direction: higher = stronger binding
All sequences stand within: GCCTAGCAC … GTCTTGATTCGCTTGACGCTGCTG
`TTAGAACTGAGTTTCAATTAGTGCTAG` gave a log fluorescence of 2.39 z-score.
The log fluorescence of `GTATATATGTGTATATATAAGTGCTAG` is reported as 0.67 z-score.
`GACGGTCTCATACTGCTGACGTGCTAG` has a log fluorescence of -0.375 z-score.
For `CTTCCTTTACTTTCTTTTTTGTGCTAG`, the log fluorescence was 2.78 z-score.
With `GACGGTTCCCTTTTCCGGACGTGCTAG` the log fluorescence was 0.097 z-score.
The log fluorescence of `TTCGGTCTCGGTTTCGGTTAGTGCTAG` is reported as 9.01 z-score.
The log fluorescence of `GACGGTTTACTTTTCCTGACGTGCTAG` is reported as 0.594 z-score.
For `GACGGACTGCTTTTCCAGACGTGCTAG`, the log fluorescence was -0.271 z-score.
The log fluorescence of `TTAGATTTCCGTCTCGATTAGTGCTAG` is reported as 1.2 z-score.
For `AATTTTTTGTATTTTTAGTGGTGCTAG`, the log fluorescence was 1.14 z-score.
The log fluorescence of `TTTTCAGCATCGCTCAGCACGTGCTAG` is reported as 1.24 z-score.
The log fluorescence of `GACGATTTCAGTATCTAGACGTGCTAG` is reported as 1.76 z-score.
The log fluorescence of `TTAGGTTTCGGTATCGGTTGGTGCTAG` is reported as 10.6 z-score.
`TTAGGACTGTTTATCCTTTAGTGCTAG` gave a log fluorescence of -0.185 z-score.
`GGCGGACTGCTTTTCCTGACGTGCTAG` has a log fluorescence of -0.614 z-score.
With `TGGGTGACTCTTACTCATTAGTGCTAG` the log fluorescence was -0.658 z-score.
The log fluorescence of `CCTCCTCCCTGTTTCCATCTGTGCTAG` is reported as 0.387 z-score.
The log fluorescence of `GACGGTTCAGGTTTCGGGACGTGCTAG` is reported as 2.41 z-score.
`TTAGGTTTCCACTATCGGTTAGTGCTA` has a log fluorescence of 7.63 z-score.

Sample 3
Target: RING finger protein unkempt homolog, zinc fingers 1-6, GST-SBP tag (UNK, Homo sapiens, UniProt Q9C0B0, residues 30-357)
UniProt Q9C0B0, sequence (30-357, looked up): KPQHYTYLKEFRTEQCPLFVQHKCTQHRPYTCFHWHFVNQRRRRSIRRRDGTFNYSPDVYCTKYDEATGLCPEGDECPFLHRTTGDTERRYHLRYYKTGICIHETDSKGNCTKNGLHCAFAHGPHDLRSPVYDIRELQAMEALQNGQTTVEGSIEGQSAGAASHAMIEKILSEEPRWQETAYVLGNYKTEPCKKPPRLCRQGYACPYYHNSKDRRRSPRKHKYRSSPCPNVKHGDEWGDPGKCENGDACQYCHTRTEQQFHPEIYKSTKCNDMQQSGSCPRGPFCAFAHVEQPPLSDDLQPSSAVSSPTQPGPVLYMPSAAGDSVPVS
Method: RNA Bind-n-Seq
Form: RNA
Matrix: in vitro
Tested at: not given
Notes: RNA with constant flanks, human and mouse sites, ends assumed
Baseline: input RNA pool
Direction: higher = stronger binding
All sequences stand within: GGGAGUUCUACAGUCCGACGAUC … CAACAGAGGAUUGAGCAUCA
With `CAUAAGAGAUGUUCUCGUAGCUCUGCGUUGUGUGAAAUGUCCAUCUUAGUUUUGUUAAAAAAAAAAAAAAAAAAAGGAAACAGCCUCACUUUUUUGUGCUCCCUCAGAAUUGCUUGCUAU` the bound/input enrichment was 2.81 ratio.
The bound/input enrichment of `UCUCCUGUAAUCACUUUUGGAGGGCUGCUUGGAGAAGCUACAGAAGGCAGAAUAAGUGCAAUAGAGUCUCUUUUUGGAGCAUCAUUAACUGGGAUUGCCUAUUCAUUGUUUGCUGGGCAA` is reported as 0.229 ratio.
`GGAAGCACAUUAAUGGAAAUAGAUGGCGAUAAAGGCAAACAAGGCGGUCCCACCUACUACAUAGAUACUAAUGCUCUGCGUGUUCCGAGGGAGAAUAUGGAGGCCAUUUCACCUCUAAAA` has a bound/input enrichment of 0.239 ratio.
For `AGUGUAGUAUUUAUUUCUAAUUUGCCUAACAAAGGAUAUUCUACAGAAGAAAUUUACAACUUAGCAAAACCAUUUGGUGCUUUGAAGGACAUUUUGGUUUUAUCAUCUCAUAAAAAGGCA`, the bound/input enrichment was 4.08 ratio.
For `AGCAUGCUGCAGCGCAAGAUUGCAGAGCUGGAAGAGGAGCGGUCCCAGGGGUCCACCAGCAACAGUGACUGGAUGAAAAACCUCAUCUCCCCUGACCUGGGGGUUGUGUUUCUCAACGUA`, the bound/input enrichment was 0.123 ratio.
For `AACUUAAUCCAGAGUUACUUGUAGCUCCUCAGAGUCUUCUUAGUCUGGGCUGCCCUGACCAUGGAUGGAGCAUCAGCCAAACAGGAUGGCCUCUGGGAAAGCAAGUCCAGCAGUGAUGUU`, the bound/input enrichment was 0.251 ratio.
`UCUGAGGAAAAGGGACACCCCCAGGAGGAAUCUGAGGAGUCAAACGUCAGCAUGGCCAGUUUAGGGGAAAAGAGGGACCACCAUUCAACCCACUACAGGGCUUCAGAGGAAGAACCUGAA` gave a bound/input enrichment of 0.233 ratio.
With `AGUGGACCAGGAGCAGCUUGGAGUUUUAACUUUCAUUUUACAAAGAACAACAUGUUUGAAUGUUUCAGCAGGCAAGUUAUAACUGGCAUCUACUUCUUGUUCUUCUAGAACACCGAAAAU` the bound/input enrichment was 0.216 ratio.

Sample 4
Target: Protein C-ets-1 (ETS1, Homo sapiens, UniProt P14921, residues 1-441, full length assumed)
Method: protein-binding microarray
Form: double-stranded DNA, one strand shown
Matrix: in vitro
Tested at: not given
Notes: k-mer, scored over probes, only values ≥0.25
Direction: higher = stronger binding
Construct (chain): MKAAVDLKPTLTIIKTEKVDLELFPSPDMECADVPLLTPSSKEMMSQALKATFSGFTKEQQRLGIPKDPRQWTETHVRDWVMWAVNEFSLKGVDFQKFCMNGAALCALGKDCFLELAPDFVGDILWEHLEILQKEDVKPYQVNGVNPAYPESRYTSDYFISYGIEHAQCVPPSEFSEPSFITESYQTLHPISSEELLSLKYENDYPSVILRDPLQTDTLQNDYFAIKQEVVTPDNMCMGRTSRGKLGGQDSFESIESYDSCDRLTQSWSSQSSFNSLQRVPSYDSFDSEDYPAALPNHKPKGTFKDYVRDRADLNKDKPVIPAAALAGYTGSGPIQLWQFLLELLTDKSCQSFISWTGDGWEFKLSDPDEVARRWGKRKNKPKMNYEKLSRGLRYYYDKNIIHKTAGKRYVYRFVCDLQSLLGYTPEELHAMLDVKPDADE
With `ACGGATAC` the E-score was 0.387.
`AAACATCC` gave an E-score of 0.447.
For `GGACAGGA`, the E-score was 0.418.
For `CCGGTATA`, the E-score was 0.278.
`ACCGGTAC` has an E-score of 0.321.
`CCGGACCC` has an E-score of 0.257.
`AGGATCCG` gave an E-score of 0.256.
The E-score of `AATCCCGG` is reported as 0.276.
`CCGGAACA` gave an E-score of 0.449.
`GGACGTAC` has an E-score of 0.288.
`GATATCCC` has an E-score of 0.297.
With `CCGGAAGG` the E-score was 0.483.
For `AGCAGGAA`, the E-score was 0.433.
For `CCTCTTCC`, the E-score was 0.408.
For `AGGACCGG`, the E-score was 0.294.
The E-score of `CCGGGATA` is reported as 0.299.
`CAGGAACC` gave an E-score of 0.326.
The E-score of `CGGGGAAG` is reported as 0.259.
`CATAGGAA` has an E-score of 0.315.
The E-score of `ACGGACGC` is reported as 0.289.

For quick reference, copied from above (sample 2):
`TTAGAACTGAGTTTCAATTAGTGCTAG` gave a log fluorescence of 2.39 z-score.
For `AATTTTTTGTATTTTTAGTGGTGCTAG`, the log fluorescence was 1.14 z-score.
The log fluorescence of `TTAGATTTCCGTCTCGATTAGTGCTAG` is reported as 1.2 z-score.
The log fluorescence of `GACGGTTCAGGTTTCGGGACGTGCTAG` is reported as 2.41 z-score.
With `TGGGTGACTCTTACTCATTAGTGCTAG` the log fluorescence was -0.658 z-score.
The log fluorescence of `TTCGGTCTCGGTTTCGGTTAGTGCTAG` is reported as 9.01 z-score.
The log fluorescence of `GACGGTTTACTTTTCCTGACGTGCTAG` is reported as 0.594 z-score.
For `GACGGACTGCTTTTCCAGACGTGCTAG`, the log fluorescence was -0.271 z-score.
